Results from different studies.
Parts stem from different laboratories: compare values within a part only. Values joined by “and” are separate records of one study, mostly repeats; a detail may differ. In brackets after ≈: the same amount, converted by molar mass.
Chain of UniProt P35348 (whole entry, looked up): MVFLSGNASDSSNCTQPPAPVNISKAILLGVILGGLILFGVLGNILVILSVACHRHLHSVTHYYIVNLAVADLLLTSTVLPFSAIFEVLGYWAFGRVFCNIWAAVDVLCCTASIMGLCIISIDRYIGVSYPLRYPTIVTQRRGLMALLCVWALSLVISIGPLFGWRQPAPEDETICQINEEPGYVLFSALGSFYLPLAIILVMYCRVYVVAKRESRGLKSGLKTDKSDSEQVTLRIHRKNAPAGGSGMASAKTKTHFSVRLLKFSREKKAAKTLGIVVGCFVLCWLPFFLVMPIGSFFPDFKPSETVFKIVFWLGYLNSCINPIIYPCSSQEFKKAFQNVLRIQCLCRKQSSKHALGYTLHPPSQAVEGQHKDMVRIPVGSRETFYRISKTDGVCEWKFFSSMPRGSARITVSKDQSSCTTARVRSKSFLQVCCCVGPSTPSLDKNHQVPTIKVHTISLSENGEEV
Chain of UniProt Q99720 (whole entry, looked up): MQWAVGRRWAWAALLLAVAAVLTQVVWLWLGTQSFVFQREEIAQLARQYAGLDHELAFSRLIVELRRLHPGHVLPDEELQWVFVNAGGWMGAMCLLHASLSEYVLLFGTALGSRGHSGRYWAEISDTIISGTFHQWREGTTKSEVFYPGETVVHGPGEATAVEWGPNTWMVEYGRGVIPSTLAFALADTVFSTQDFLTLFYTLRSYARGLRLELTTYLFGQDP
Chain of UniProt P62344 (whole entry, looked up): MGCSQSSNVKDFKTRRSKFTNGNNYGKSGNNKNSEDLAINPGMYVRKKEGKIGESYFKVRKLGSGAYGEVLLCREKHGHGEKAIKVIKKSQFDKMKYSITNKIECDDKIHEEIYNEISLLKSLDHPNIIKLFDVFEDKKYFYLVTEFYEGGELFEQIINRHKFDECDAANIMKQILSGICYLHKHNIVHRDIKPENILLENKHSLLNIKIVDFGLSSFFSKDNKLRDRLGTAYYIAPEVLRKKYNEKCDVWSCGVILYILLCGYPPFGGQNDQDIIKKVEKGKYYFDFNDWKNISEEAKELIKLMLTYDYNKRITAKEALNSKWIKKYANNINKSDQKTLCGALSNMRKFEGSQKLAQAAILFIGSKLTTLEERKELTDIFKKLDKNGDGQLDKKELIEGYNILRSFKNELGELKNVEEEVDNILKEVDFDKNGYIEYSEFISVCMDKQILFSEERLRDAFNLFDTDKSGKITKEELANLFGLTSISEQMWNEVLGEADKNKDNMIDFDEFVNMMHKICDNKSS
Chain of UniProt P9WI81 (whole entry, looked up): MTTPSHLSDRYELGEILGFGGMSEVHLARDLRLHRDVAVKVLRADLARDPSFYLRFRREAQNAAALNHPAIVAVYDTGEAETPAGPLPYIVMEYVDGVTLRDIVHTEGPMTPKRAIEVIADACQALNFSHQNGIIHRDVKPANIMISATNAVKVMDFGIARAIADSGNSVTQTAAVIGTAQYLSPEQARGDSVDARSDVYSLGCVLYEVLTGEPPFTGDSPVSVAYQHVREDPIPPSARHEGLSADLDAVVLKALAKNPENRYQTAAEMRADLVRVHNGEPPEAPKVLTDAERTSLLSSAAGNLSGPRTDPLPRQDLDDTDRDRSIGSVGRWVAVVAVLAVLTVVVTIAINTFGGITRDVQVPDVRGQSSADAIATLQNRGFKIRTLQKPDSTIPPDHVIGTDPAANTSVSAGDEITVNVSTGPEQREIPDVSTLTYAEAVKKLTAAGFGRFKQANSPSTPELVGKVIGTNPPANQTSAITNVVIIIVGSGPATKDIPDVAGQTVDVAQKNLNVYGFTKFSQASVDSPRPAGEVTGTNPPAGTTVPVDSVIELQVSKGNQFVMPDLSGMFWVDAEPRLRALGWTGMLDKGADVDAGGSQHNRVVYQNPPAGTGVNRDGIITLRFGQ

Study 1 — cell line: mouse MPNST tumor cells; technique: high-content nuclear imaging; item: cell number; concentration: 10 µM; time: 12 h; notes: mean of 2 replicates; relative to: plate mean; reading: higher = more cells
Structure (SMILES)	nuclei count
CCCCCC[C@H]1C(=O)O[C@H](C)[C@H](NC(=O)c2cccc(NC=O)c2O)C(=O)O[C@@H](C)[C@@H]1OC(=O)CC(C)C	-0.303 z-score
COc1cc(N)c(Cl)cc1C(=O)NC1CN2CCC1CC2 (stereo not shown)	0.59 z-score
COc1ccc(C(=O)N2CCCC2=O)cc1	0.00595 z-score and 0.155 z-score
CN(C(=O)Oc1nsnc1N1CCOCC1)C1CCCCCCC1	1.32 z-score
C[C@]12CCC(=O)C(O)=C1CC[C@@H]1[C@@H]2CC[C@]2(C)C(=O)CC[C@@H]12	3.2 z-score
CC(=O)[C@H]1CC[C@H]2[C@@H]3CC[C@H]4C[C@H](O)CC[C@]4(C)[C@H]3C(=O)C[C@]12C	1.48 z-score
CCCCN1C2CCC1CC(OC(c1ccc(F)cc1)c1ccc(F)cc1)C2 (stereo not shown)	-6.36 z-score
Fc1ccc(C(OCCN2CCN(CCCc3ccccc3)CC2)c2ccc(F)cc2)cc1	-2.07 z-score and -1.07 z-score

Study 2 — read-out: enzyme activity; action: inhibitor; concentration: 10 µM
Target: Calcium/calmodulin-dependent protein kinase type II subunit alpha (CAMK2A, Homo sapiens, UniProt Q9UQM7)
Chain of UniProt Q9UQM7 (whole entry, looked up): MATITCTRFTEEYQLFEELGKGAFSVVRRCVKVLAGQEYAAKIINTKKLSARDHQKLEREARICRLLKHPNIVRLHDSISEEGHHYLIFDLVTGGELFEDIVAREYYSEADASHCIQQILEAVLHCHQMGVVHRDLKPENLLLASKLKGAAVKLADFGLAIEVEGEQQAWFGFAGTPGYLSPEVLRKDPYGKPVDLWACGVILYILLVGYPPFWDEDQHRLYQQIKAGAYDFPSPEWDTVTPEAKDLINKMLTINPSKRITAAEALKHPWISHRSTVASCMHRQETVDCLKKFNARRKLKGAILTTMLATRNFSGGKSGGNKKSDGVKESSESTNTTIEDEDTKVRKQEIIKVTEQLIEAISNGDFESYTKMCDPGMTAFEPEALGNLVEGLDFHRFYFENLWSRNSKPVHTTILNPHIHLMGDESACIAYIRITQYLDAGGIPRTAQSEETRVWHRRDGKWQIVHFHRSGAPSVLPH
Compound	inhibition [%]
C/C=C/C#CC#C/C=C/c1ccco1	-15
C[C@]12CC[C@H](O)C[C@H]1CC[C@@H]1[C@@H]2C[C@@H](O)[C@]2(C)[C@@H](C3=CC(=O)OC3)CC[C@]12O	27
CC[C@@]1(O)C(=O)OCc2c1cc1n(c2=O)Cc2cc3cc(OC)ccc3nc2-1	-17
C/C=C\c1cc(OC)c(OC)cc1OC	17
O=[N+]([O-])C(Br)(CO)CO	4
CCCCc1ccc(C(=O)O)nc1	-7

Study 3 — organism: Staphylococcus aureus; strain: USA300
SMILES: CCCCC[C@@H](O)CC(=O)N[C@H]1COC(=O)[C@H](CO)NC(=O)CNC(=O)[C@H]([C@@H](C)O)NC(=O)[C@H](Cc2ccccc2)NC(=O)[C@@H](Cc2c[nH]c3ccccc23)NC(=O)[C@@H]([C@H](C)O)NC(=O)[C@H](CC(N)=O)NC(=O)[C@@H]([C@H](C)O)NC(=O)[C@H](CC(C)C)NC(=O)[C@@H](Cc2c[nH]c3ccccc23)N(C)C(=O)CNC(=O)[C@H](CO)NC(=O)[C@@H](CO)NC1=O
conditions	MIC [mg/L]
added: menaquinone 0.125 µg/mL	16 (≈ 9.59 µM)
added: menaquinone 0.0625 µg/mL	8 (≈ 4.79 µM)
added: menaquinone 0.25 µg/mL	32 (≈ 19.2 µM)
added: menaquinone 32 µg/mL	> 64

Mixed results
Structure (SMILES)	target	assay	conditions	quantity	value
Cc1nc(N2CC[C@@H](O)C2)ncc1-c1cc(C(F)(F)F)cc2[nH]ncc12	Serine/threonine-protein kinase PknB (pknB, Mycobacterium tuberculosis, UniProt P9WI81)	cell-free assay, competition with immobilised ligand	1 µM	remaining binding	89%
CNC(=O)c1cc(C(=O)NC2CC2)cn(Cc2ccccc2)c1=O	Alpha-1A adrenergic receptor (ADRA1A, Homo sapiens, UniProt P35348)	binding, radioligand binding	10 µM	inhibition	-0.64%
Cc1c(N2CCNCC2)nc2ccc(Br)cc2c1C(=O)NC[C@H](CCC(=O)O)c1ccccc1Cl	Sigma non-opioid intracellular receptor 1 (SIGMAR1, Homo sapiens, UniProt Q99720)	ligand displacement	10 µM	inhibition	36.5%
CC(=O)N1CCC(c2ccc(C(=O)NC(=N)N)cc2C(F)(F)F)CC1	Calcium-dependent protein kinase 1 (CDPK1, Plasmodium falciparum, UniProt P62344)	cell-free assay, competition with immobilised ligand	1 µM	remaining binding	87%

Some of these lines once more (study 2):
Compound	inhibition [%]
C[C@]12CC[C@H](O)C[C@H]1CC[C@@H]1[C@@H]2C[C@@H](O)[C@]2(C)[C@@H](C3=CC(=O)OC3)CC[C@]12O	27
CC[C@@]1(O)C(=O)OCc2c1cc1n(c2=O)Cc2cc3cc(OC)ccc3nc2-1	-17
C/C=C\c1cc(OC)c(OC)cc1OC	17
O=[N+]([O-])C(Br)(CO)CO	4
